{"data": "Experimental data collected from several papers", "note": "Protocols differ between the studies behind these lines. “And” joins repeats or separate records; there may be more than shown. ± gives the spread as reported."}
{"Compound": "O=C1NCC(COc2cccc3c(NCc4ccccc4)nc(Cl)nc23)O1 (stereo not shown)", "test system": "C57BL/6 mouse, heart", "setting": "oral, 30 mg/kg, 0.5 h", "scale": "reference: heart over plasma", "quantity": "tissue/plasma ratio", "value": "< 0.145"}
{"Compound": "CN(C)c1ccc(-c2oc3cc4ccccc4cc3c(=O)c2O)cc1", "test system": "DMSO", "setting": "with: visible light", "quantity": "CO release quantum yield", "value": 0.006}
{"Compound": "C=C(NC(=O)c1csc(-c2nc3c(cc2O)-c2nc(cs2)C(=O)NC(C(C)O)C(=O)NC(=C(C)OC)c2nc(cs2)C(=O)NC2c4nc(cs4)C(=O)NC(COC(=O)c4c5c6c(cccc6n4O)COC(=O)C(OC4CC(C)(O)C(N(C)C)C(C)O4)C2OC5)c2nc-3cs2)n1)C(N)=O (stereo not shown)", "test system": "cynomolgus monkey, both sexes, plasma", "setting": "intravenous infusion, 3 mg/kg single dose", "quantity": "AUC(0-last)", "value": "24400 ± 8980 ng·h/mL"}
{"Compound": "COc1cccc(OC)c1-c1cc(C(=O)NC2(C(=O)O)C3CC4CC(C3)CC2C4)nn1-c1ccc(C(=O)N(C)CCCN(C)C(=O)[C@H](CCCCNC(=O)[C@H](CC(C)C)NC(=O)C2OC2C(=O)O)NC(=O)CN2CCN(CC(=O)[O-])CCN(CC(=O)[O-])CCN(CC(=O)[O-])CC2)cc1C(C)C.[177Lu+3] (mixture of isomers)", "test system": "mouse HT-29 xenograft", "setting": "72 h, biodistribution", "scale": "reference: tumour over small intestine", "quantity": "tumour-to-small intestine ratio", "value": 16.8}
{"Compound": "CCCCC/C=C\\CCCO[Si](CCCCN(CC)CC)(OCCC/C=C\\CCCCC)OCCC/C=C\\CCCCC", "setting": "pH 5.5, formulated", "quantity": "zeta potential", "value": "1.89 mV"}
{"Compound": "CCC1CNC(CC)CN(C(C(=O)[O-])c2ccc(C(=O)[O-])cc2)C(CC)CN(CC(=O)[O-])C(CC)CN1.[Mn+2] (stereo not shown)", "test": "ICP-MS", "test system": "BALB/c mouse, blood", "setting": "intravenous, 0.05 mmol/kg, 5 min, without anaesthesia", "quantity": "Mn content", "value": "2.84 ± 0.52 µg/g"}
{"Compound": "COc1ccnc(C(=O)N[C@H]2COC(=O)[C@H](Cc3ccccc3)[C@@H](OC(=O)C(C)C)[C@H](C)OC2=O)c1O", "test system": "straw, bran, forage, germ", "setting": "-18 °C", "quantity": "storage stability of residues", "value": "9 months"}
{"Compound": "COc1cccc(OC)c1-c1cc(C(=O)NC2(C(=O)O)C3CC4CC(C3)CC2C4)nn1-c1ccc(C(=O)NCCNC(=O)[C@H](CCCCNC(=O)[C@H](CC(C)C)NC(=O)C2OC2C(=O)O)NC(=O)CN2CCN(CC(=O)[O-])CCN(CC(=O)[O-])CCN(CC(=O)[O-])CC2)cc1C(C)C.[177Lu+3] (mixture of isomers)", "test system": "mouse, HT-29 xenograft", "setting": "168 h post injection, biodistribution", "scale": "reference: tumour over lung uptake", "quantity": "tumour-to-lung ratio", "value": 2.83}
{"Compound": "CCn1nc(Cl)c2c1-c1cnc(N)c(c1)O[C@H](C)c1cc(F)ccc1-c1nn(C)cc1C2", "test system": "bovine, serum", "quantity": "fraction unbound", "value": 0.32}
{"Compound": "CC(C)(C)C(=O)Nc1ccc2[nH]c(CN3CCC(N(CCCN4CCOCC4)CC4OC(n5cnc6c(N)ncnc65)C(O)C4O)CC3)nc2c1 (stereo not shown)", "test system": "male Sprague-Dawley rat, plasma", "setting": "intraperitoneal, 20 mg/kg, 30 min", "quantity": "concentration", "value": "1560 ng/mL"}
{"Compound": "C=CC(=O)N1CCCC(n2c(=O)c3ncccc3n(Cc3ccc(Oc4ccccc4)cc3)c2=O)C1 (stereo not shown)", "test system": "male BALB/c mouse, plasma", "setting": "oral, 200 mg/kg, 2 h", "quantity": "concentration", "value": "8590 ng/mL"}
{"Compound": "CC[C@H](C)[C@@H]1NC(=O)[C@H](Cc2ccc(O)cc2)NC(=O)CCCSC[C@@H](C(=O)N(CC(=O)N[C@@H](CC(C)C)C(=O)NCC(N)=O)Cc2ccc(F)cc2)NC(=O)[C@H](CC(N)=O)NC(=O)[C@H](CCC(N)=O)NC1=O", "test system": "human", "setting": "intranasal, 200 µg repeated doses", "quantity": "AEs leading to discontinuation", "value": "0%"}
{"Compound": "O=C(NS(=O)(=O)c1cccs1)c1cc2ccccc2n1Cc1ccc(Br)c2ccccc12", "test system": "KM mouse, chronic hyperuricaemia model", "setting": "dose not given, day 29", "quantity": "body weight", "value": "38 g and 36.4 g and 40.2 g and 38.8 g and 39.4 g and 39.2 g"}
{"Compound": "CNCc1ccc(-c2cc(=O)c3ccc4[nH]c(C(F)(F)F)nc4c3o2)cc1", "test system": "ICR mice, brain", "setting": "intravenous, 2 mg/kg", "quantity": "AUC", "value": "84.3 ng·h/mL"}
{"Compound": "O=C(Nc1cnccc1-c1ccc([18F])nc1)c1ccnc(NC(=O)C2CC2)c1", "test system": "FVB/NJ mice (both sexes), lung", "setting": "intravenous, dose not given, 120 min, with: tariquidar 15 mg/kg i.v. pre-dose", "quantity": "SUV", "value": 0.204}
{"Compound": "COc1cccc(OC)c1-c1cc(C(=O)NC2(C(=O)O)C3CC4CC(C3)CC2C4)nn1-c1ccc(C(=O)N(C)CCOCCN(C)C(=O)[C@H](CCCCNC(=O)[C@H](CC(C)C)NC(=O)C2OC2C(=O)O)NC(=O)CN2CCN(CC(=O)[O-])CCN(CC(=O)[O-])CCN(CC(=O)[O-])CC2)cc1C(C)C.[177Lu+3] (mixture of isomers)", "test system": "mouse HT-29 xenograft", "setting": "24 h, biodistribution", "scale": "reference: tumour over large intestine", "quantity": "tumour-to-large intestine ratio", "value": 12.7}
{"Compound": "COc1cc(C=CC(=O)Nc2ccc(-c3ccc(NC(=O)C=Cc4ccc(O)c(OC)c4)cc3)cc2)ccc1O", "test": "shake flask UV/Vis", "test system": "n-octanol/water", "quantity": "logP", "value": 5.12}
{"Compound": "CC[C@H](C)[C@H](NC(=O)[C@H](CCCCN)NC(=O)[C@H](CCC(=O)O)NC(=O)[C@H](CO)NC(=O)[C@H](Cc1ccccc1)NC(=O)[C@H](CC(C)C)NC(=O)[C@H](CCC(N)=O)NC(=O)[C@H](CO)NC(=O)[C@H](C)NC(=O)[C@H](CCCCN)NC(=O)[C@H](Cc1c[nH]cn1)NC(=O)[C@H](Cc1c[nH]c2ccccc12)NC(=O)[C@H](CCC(N)=O)NC(=O)[C@H](CCCCN)NC(=O)[C@H](CCCCN)NC(=O)[C@H](CC(C)C)NC(=O)CNC(=O)[C@H](C)NC(=O)[C@@H](NC(=O)[C@H](CO)NC(=O)[C@@H](N)CCSC)C(C)C)C(=O)N[C@@H](CO)C(=O)NCC(=O)N[C@@H](C)C(N)=O", "test system": "water", "quantity": "folding free energy", "value": "6.83 kcal/mol"}
{"Compound": "O=C(Nc1cnccc1-c1ccc([18F])cc1)c1ccnc(NC(=O)C2CC2)c1", "test system": "mice, transgenic, GSK-3β, early-stage, lung", "setting": "intravenous, dose not given, 120 min, with: tariquidar 15 mg/kg i.v. pre-dose", "quantity": "SUV", "value": 0.37}
{"Compound": "Cc1cc(-c2ccc(C(=O)[C@@H]3CCCC[C@H]3C(=O)Nc3cnn4c3C(=O)NCC4)cc2)[nH]n1", "test system": "human, faeces", "setting": "oral, 200 mg, 0-24 h", "scale": "reference: dose", "quantity": "recovery of radioactivity per interval", "value": "5.79%"}
{"Compound": "Cc1nc(N)nc2c1C(=O)N[C@@H](c1ccc(F)cc1-c1cccc(O[11CH3])n1)C2", "test": "ex vivo biodistribution", "test system": "mice, U87 subcutaneous xenograft, liver", "setting": "60 min post-injection, baseline, vehicle pre-treatment", "quantity": "tracer uptake", "value": "14.7 ± 0.8 %ID"}
{"Compound": "CCCC[C@H](NC(=O)COCCOCCNC(=O)CN1CCN(CC(=O)O)CCN(CC(=O)O)CC1)C(=O)N[C@H]1CC(=O)NCCCC[C@@H](C(N)=O)NC(=O)[C@H](Cc2c[nH]c3ccccc23)NC(=O)[C@H](CCCNC(=N)N)NC(=O)[C@@H](Cc2ccccc2)NC(=O)[C@H](Cc2c[nH]cn2)NC1=O [fluorine-18 labelled]", "test system": "C57 mice B16-F10 melanoma, skin", "setting": "intravenous, 0.37 MBq, 0.5 h", "quantity": "tissue uptake", "value": "2.25 ± 0.28 %ID/g"}
{"Compound": "C[C@]12C[C@H](c3ccc(S(C)(=O)=O)cc3)C3=C4CCC(=O)C=C4CC[C@H]3[C@@H]1CC[C@@]2(O)C(F)(F)C(F)(F)F", "test": "measured: compound (parent)", "test system": "healthy human volunteers, pooled plasma", "setting": "oral, 5 mg daily, day 28, 2 h", "quantity": "plasma concentration", "value": "30 ng/mL"}
{"Compound": "O=[11C](OC(C(F)(F)F)C(F)(F)F)N1CCC(CNS(=O)(=O)c2ccc(Cl)cc2)CC1", "test system": "Sprague-Dawley rat, plasma", "setting": "iv, dose not given, 30 min", "quantity": "unchanged tracer", "value": "7%"}
{"Compound": "C=CC(=O)Nc1cc(Nc2nccc(-c3c[nH]c4ccccc34)n2)c(OC)cc1N(C)CCN(C)C", "test system": "human plasma", "setting": "5 h, storage stability, LLOQ sample", "quantity": "recovery", "value": "94.6%"}
{"note": "Some of these lines once more:"}
{"Compound": "C=CC(=O)N1CCCC(n2c(=O)c3ncccc3n(Cc3ccc(Oc4ccccc4)cc3)c2=O)C1 (stereo not shown)", "test system": "male BALB/c mouse, plasma", "setting": "oral, 200 mg/kg, 2 h", "quantity": "concentration", "value": "8590 ng/mL"}
{"Compound": "CC[C@H](C)[C@@H]1NC(=O)[C@H](Cc2ccc(O)cc2)NC(=O)CCCSC[C@@H](C(=O)N(CC(=O)N[C@@H](CC(C)C)C(=O)NCC(N)=O)Cc2ccc(F)cc2)NC(=O)[C@H](CC(N)=O)NC(=O)[C@H](CCC(N)=O)NC1=O", "test system": "human", "setting": "intranasal, 200 µg repeated doses", "quantity": "AEs leading to discontinuation", "value": "0%"}
{"Compound": "O=C(NS(=O)(=O)c1cccs1)c1cc2ccccc2n1Cc1ccc(Br)c2ccccc12", "test system": "KM mouse, chronic hyperuricaemia model", "setting": "dose not given, day 29", "quantity": "body weight", "value": "38 g and 36.4 g and 40.2 g and 38.8 g and 39.4 g and 39.2 g"}
